Measurements collected from several papers.
Parts stem from different laboratories: compare values within a part only. Positions count from the first letter of the parent shown.

Block 1
Target: ABI1, truncated, D143A, DHFR fusion (Arabidopsis thaliana)
Technique: DHFR PCA, deep sequencing
Medium: yeast
Setting: methotrexate growth selection, single substitutions
Together with: (+)-ABA 4.8 µM
Reference: wild-type fitted maximum
Direction: higher = stronger binding
Parent: PYL1, truncated, DHFR fusion (Arabidopsis thaliana); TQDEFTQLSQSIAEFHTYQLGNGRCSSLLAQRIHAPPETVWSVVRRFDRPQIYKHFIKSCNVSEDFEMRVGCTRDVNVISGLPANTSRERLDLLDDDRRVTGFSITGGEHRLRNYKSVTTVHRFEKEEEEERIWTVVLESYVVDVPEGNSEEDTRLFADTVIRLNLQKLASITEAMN; partner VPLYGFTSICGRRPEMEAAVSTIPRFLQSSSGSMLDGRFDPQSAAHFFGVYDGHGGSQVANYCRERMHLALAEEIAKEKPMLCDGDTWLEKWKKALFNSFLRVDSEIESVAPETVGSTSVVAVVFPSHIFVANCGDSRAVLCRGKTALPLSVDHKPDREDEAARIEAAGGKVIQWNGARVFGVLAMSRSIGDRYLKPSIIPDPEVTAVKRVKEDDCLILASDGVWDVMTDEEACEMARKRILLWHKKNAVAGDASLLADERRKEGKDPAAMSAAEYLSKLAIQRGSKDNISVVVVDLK
Substitution	relative binding score [%]
Q51H	70.5
V62D	-9.19
D96Q	5.66
K168T	75
E4C	65.4
R74H	2.54
H110I	-13.6
T106I	106
V143R	-3.26
L164C	77.8
R123M	53.6
N165I	-8.3
A84R	4.93
Q10I	40.6
E14H	37
M176V	54.3

Block 2
Target: RNA binding protein fox-1 homolog 2, RRM domain, GST-SBP tag (RBFOX2, Homo sapiens, UniProt O43251-10, residues 100-194)
Technique: RNA Bind-n-Seq
Molecule type: RNA
Medium: in vitro
Concentration: 365 nM
Setting: natural RNA segment, single round, ends assumed
Reference: no-protein control
Direction: higher = stronger binding
All sequences stand within: GGGAGUUCUACAGUCCGACGAUC … UGGAAUUCUCGGGUGCCAA
Residues (chain): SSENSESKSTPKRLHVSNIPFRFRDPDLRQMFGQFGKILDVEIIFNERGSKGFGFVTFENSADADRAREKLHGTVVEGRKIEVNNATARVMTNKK
Strand	RBNS enrichment (R)
UGAUACUUCAUGUAUUUGAAUAUAGUUAAAUCGUAUUAUUUUUUUCUUAACAGAAAUAUUUUUAAAAAUGAAAAAGUACUCAAAAGUGAGAAGAGUUAACUUGUCAAAGC	0.509
GCUCUGUCUGUCCAAAGACGCUCCGGUCGAGGUCCCGCCUGCCCUGGGUGGAUACUUGAACCCCAGACGCCCCUCUGUGCUGCUGUGUCCGGAGGCGGCCUUCCCAUCUG	0.24
CUCGCGCUGGCCAGGAUCCUCCUGCCGAGCUGAUGUCGCUCCUGCCCUCUGCCGGGGUCCGGAAGCGACAUCUCAGGAGGUAGCUCUCAGCAGAGUGAGGAUUCCUGCCU	0.219
UGCCUUCAUUAGGACGUUCUUUUUAGAAGCAGUUCUUCCAGCUCUGGAUCAUAGAGUGACCUUUAAUAAGUUAAAAAAACGAGGACUCCUUAAUUCUGCUAGAGUUAACC	0.297
AUUUCUGCUUUGUCUAUAAGAAGUGGUCAAGUCCAACUCUGUGACAACUCUUAACUUGCCUCCCUGUUAAUAAGUCUUUGAUUCUGAAGUGAACGUUAGCUUUUCUCAAA	0.569
GCUGCUGUGAGCAAAUGAACAUAAAUGCUCGCUGGAAAUUUACUAACCAGUUUUUAUAUUGACCUGCAGUGUAAAAAGCACAUUUAAUUAUAAACAAUAUAUUCAAAAUG	0.644
CUCUCCAUUCCUGGUUCAGGGUUAGGGUCCUGAGAGGCUGGCUCGGCACUACUCCGAGGGUCCCUCACUCUACAAGGUCUUUGUUAGUAUUAAAGGCCACUGUUUUGCAU	0.487
GGUUAGCUGAGAAAGAAAUCGGGCUGCUGCGGAGCACAGAGUGACUUGGAACUCCAUUCCACCUGACCCUGUGUGUACAAUCCAGGAAAACAAACCCCGCUCAGAAACAA	0.268
GUAUUUUUAUAACUAAACAGAGGAAGUCUUCAGAAGACCUCGCUUUAAAACAAAUUUGUGCAAACACUGCUAGAGUCAUUUUGAAGCUCAAGCAUUUUCACUUUGUUUCU	0.434
UUAAAUCGGAUGUUUCCUGUACCUGCCACACUAUGUUAGAAUGUGUCCUUCAACCAUAUCCUGCAACUUCUCAAACUGUACUAAAUUGAUAUUUCUUGAAGUCUAACUCU	0.445
GAACCUGCCUUUCUGUGAAUGUGUCUGACUUAGAAUCACACUUUAUAAAUUAAUCCAGGUUGUGUUAAUACAGCAGUUUUCCUAGGCCCAAAAGGUUACUCUCAUAACAU	0.751
CAAUAUCUUGAGUUUGUAGCUUAGAAUUGGGAAGGCACUGAACAUCUGGAAGACAAGGUCAUUUCAUCUUGAGAUCAUGGUGAAAUAUUUUGGAUAUAUAAAUUCCUUAA	0.321

Block 3
Target: ATF7, bZIP domain (human)
Technique: DHFR protein complementation
Medium: yeast
Setting: single substitutions, most at no-binding floor
Reference: wild-type JUN-FOS pair
Direction: higher = stronger binding
Parent: JUN, bZIP domain (human); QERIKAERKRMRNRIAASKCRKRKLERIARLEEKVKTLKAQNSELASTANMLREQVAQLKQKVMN; partner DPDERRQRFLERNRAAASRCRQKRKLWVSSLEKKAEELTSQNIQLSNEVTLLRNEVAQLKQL
Substitution	binding fitness
K36W	-1.32 natural log
E44R	-1.06 natural log
A49E	-1.44 natural log
S43W	-1.12 natural log
M51N	-0.986 natural log
V56F	-1.38 natural log
R30P	-1.3 natural log
M51G	-1.12 natural log
R53M	-1.42 natural log
V56A	-1.27 natural log
S47T	-0.895 natural log
A29D	-1.1 natural log
A29H	-0.969 natural log

Block 4
Target: Ras GTPase-activating protein-binding protein 1, C-terminal RGG region (G3BP1, Homo sapiens, UniProt Q13283)
Sequence of UniProt Q13283 (whole entry, looked up): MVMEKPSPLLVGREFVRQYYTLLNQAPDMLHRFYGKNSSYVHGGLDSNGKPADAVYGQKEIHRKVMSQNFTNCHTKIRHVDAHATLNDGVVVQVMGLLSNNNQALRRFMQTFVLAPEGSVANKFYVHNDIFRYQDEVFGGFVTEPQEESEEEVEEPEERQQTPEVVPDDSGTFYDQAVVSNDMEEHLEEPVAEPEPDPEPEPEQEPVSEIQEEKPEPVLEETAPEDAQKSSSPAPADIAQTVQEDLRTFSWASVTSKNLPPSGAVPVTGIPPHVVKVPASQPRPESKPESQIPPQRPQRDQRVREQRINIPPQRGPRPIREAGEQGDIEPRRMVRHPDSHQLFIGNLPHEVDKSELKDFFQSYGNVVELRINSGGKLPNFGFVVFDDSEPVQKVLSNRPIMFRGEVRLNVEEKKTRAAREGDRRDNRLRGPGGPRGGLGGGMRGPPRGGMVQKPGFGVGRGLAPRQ
Technique: RNA Bind-n-Seq
Molecule type: RNA
Medium: in vitro
Concentration: 1 µM
Setting: whole 134-nt RNA, ends assumed
Together with: 150 mM KCl
Reference: input library
Direction: higher = stronger binding
All sequences stand within: GGGAGUUCUACAGUCCGACGAUC … UGGAAUUCUCGGGUGUCAAGG
Strand	log2 enrichment
AAGUCCUGUGCUACACAUCGUAUGUACCGAAUCGGUUUUGGGGUUUUGGUUUUGGGAAAGUAUUAUGUUACGCCGUUCGGAUCUGCACUU	-1.34
AGUCCUGUGCUACACAUCGUAUGUACCGAAUCAAACCCAAACCCAAACCCCCCCAAAAAAGUAUUAUGUUACGCCGUUCGGAUCUGCACU	-1.19
CUGUGCUACACAUCGUAUGUACCGAAUCGGAAAAAAAGGAAAAAAAGGGGAAAAAAAGGGGAAAGUAUUAUGUUACGCCGUUCGGAUCUG	-1.44
CCUCAAGUCCUGUGCUACACAUCGUAUGUACCGAAUCGGGAGGGAGGGGAGGAAAGUAUUAUGUUACGCCGUUCGGAUCUGCACUUCCAG	0.687
UGCUCUUCACCAAGGAGGACGAGCCUGGCCGCUGCGACGUCCUGAGGAACCCCCUCUACCUCCAGAGUGUGAAGCUGCAGGAAGGUAAGC	-0.762
UAACUUUAGAGGAGGAUCUGAUGGAUAUGGCACUGGACGUGGAUUUGGGGAUGGCUAUAAUGGGUAUGGAGGAGGACCUGGAGGUGGCAA	-0.888
GUCCUGUGCUACACAUCGUAUGUACCGAAUCGGGUUUUUGGGAAAAAAAGGGUUUGGGAAAGUAUUAUGUUACGCCGUUCGGAUCUGCAC	-0.507
CCUCAAGUCCUGUGCUACACAUCGUAUGUACCGAAUCGGGUGGGUGGUGGGGAAAGUAUUAUGUUACGCCGUUCGGAUCUGCACUUCCAG	1.04
CUGUGCUACACAUCGUAUGUACCGAAUCGGGGUUUUUGGGGAAAAAAAGGGGUUUUUGGGGAAAGUAUUAUGUUACGCCGUUCGGAUCUG	0.64
UCCUGUGCUACACAUCGUAUGUACCGAAUCGGGUUUUUUUGGGUUUUUGGGAAAAAGGGAAAGUAUUAUGUUACGCCGUUCGGAUCUGCA	-0.626
GAUCUCCGGGCUCAGUUGCAGAUUCUGGCCAACAUGGACAGCCAGCUAAAAGAGCUACAGAGUCAGCAUACCCAUUGUGCCCAGGACCUG	-1.6
CCUGUGCUACACAUCGUAUGUACCGAAUCGGGGUUUGGGGAAAAAAAGGGGAAAAAGGGGAAAGUAUUAUGUUACGCCGUUCGGAUCUGC	0.631
UGGCUUCGAAGUACAGUCUUUGCAGGAUGCAGGAAAUCAGCUUGGUAUGGAGGAUACAUCUCUGAGCUCUGGAAUGCUCACCCAGAACAC	-0.957
AAGUCCUGUGCUACACAUCGUAUGUACCGAAUCGGGAAAAAGGAAAAAGGAAAAAGGAAAGUAUUAUGUUACGCCGUUCGGAUCUGCACU	-2.02

Block 5
Target: CCND3, cyclin fold, Cln2 fusion (human)
Technique: yeast growth competition, sequencing
Medium: yeast
Setting: weak parent motif
Reference: not given
Direction: higher = stronger binding
Parent: FZR1 docking peptide (human); QDYERRLLRQIVI; partner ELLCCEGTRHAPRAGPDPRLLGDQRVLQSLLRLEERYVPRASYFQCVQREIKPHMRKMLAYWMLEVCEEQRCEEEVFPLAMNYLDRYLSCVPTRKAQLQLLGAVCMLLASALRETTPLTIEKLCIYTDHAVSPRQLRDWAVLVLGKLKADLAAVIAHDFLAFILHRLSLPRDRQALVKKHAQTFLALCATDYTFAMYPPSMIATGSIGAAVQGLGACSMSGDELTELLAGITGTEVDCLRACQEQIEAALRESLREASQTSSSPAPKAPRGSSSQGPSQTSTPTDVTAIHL
Substitution	normalised enrichment score
L8A	0.138
R6A	0.117
R9A	0.0366
R5K	0.16
Q10A	0.0963
I13A	0.0855
L7A	0.139

Block 6
Target: Histone acetyltransferase KAT6A, winged helix 2, GST fusion (KAT6A, Homo sapiens, UniProt Q92794, residues 85-181)
Technique: protein binding microarray
Molecule type: double-stranded DNA, one strand shown
Medium: in vitro
Concentration: not given
Setting: 8-mer, flanks averaged, mean of 2 arrays, mostly near background
Reference: not given
Direction: higher = stronger binding
Construct (chain): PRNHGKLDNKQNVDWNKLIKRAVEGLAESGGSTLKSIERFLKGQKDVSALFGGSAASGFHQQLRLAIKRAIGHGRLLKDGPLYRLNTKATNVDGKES
Strand	E-score
CCATCAGA	-0.117
GCGCAGTA	-0.0287
CTACGTGA	-0.198
ATAGAACG	0.044
CGACCGAA	0.158
GGCGAACC	0.22
AGACATAG	-0.0763
ATATATCG	0.0627
AACTAGGG	-0.0566
ATAGCTTA	0.0034
CACAGTAA	0.0121
AGATTCGC	-0.0294
ACCCAGTA	-0.169
CTCCGCTA	-0.16
ATCTCACC	0.0741
AGAAAGGG	-0.0421
GAACGCTC	-0.139
ATCAGCCA	0.0398
AAAAGCTT	-0.213
ACGTTTTC	-0.136
CCCGAATA	0.0903

Block 7
Target: Sal-like protein 4, full length isoform B (SALL4, Homo sapiens, UniProt Q9UJQ4-2, residues 1-616)
Technique: universal PBM
Molecule type: double-stranded DNA, one strand shown
Medium: in vitro
Concentration: not given
Setting: 8-mer, flanks averaged, mean of replicates
Direction: higher = stronger binding
Target sequence (chain): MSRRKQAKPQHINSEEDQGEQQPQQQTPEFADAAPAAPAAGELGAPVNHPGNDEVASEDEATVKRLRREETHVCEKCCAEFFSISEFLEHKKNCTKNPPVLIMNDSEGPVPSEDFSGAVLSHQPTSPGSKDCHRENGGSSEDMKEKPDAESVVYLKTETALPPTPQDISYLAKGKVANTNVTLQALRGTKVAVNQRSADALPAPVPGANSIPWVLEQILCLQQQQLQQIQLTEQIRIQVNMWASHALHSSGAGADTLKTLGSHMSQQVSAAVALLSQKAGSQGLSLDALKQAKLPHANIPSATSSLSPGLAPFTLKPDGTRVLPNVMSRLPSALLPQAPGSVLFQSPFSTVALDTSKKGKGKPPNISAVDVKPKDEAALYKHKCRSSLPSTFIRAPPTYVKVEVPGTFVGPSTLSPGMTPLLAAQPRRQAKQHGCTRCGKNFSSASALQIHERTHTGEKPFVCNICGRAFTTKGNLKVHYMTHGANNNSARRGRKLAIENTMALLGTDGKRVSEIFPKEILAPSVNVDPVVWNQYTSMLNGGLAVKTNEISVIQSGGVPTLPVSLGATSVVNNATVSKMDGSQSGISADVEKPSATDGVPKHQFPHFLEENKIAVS
Strand	E-score
CCTCGGAA	-0.132
ATGCAAAC	0.0977
AATAGACA	0.121
CTATTGTA	0.344
GATAGGAC	-0.144
AGCCTAAC	-0.148
CGCAAAAG	-0.0913
GGATGAAA	0.00988
ATACCAAA	0.271
ATTCGAGA	0.0954
AGTGTGCC	-0.148
ATTTAGTG	0.188
GATACTCC	-0.179
GGATACAA	0.0931
TCACACCA	0.0997
CAAGGGCA	-0.184

For quick reference, copied from above (block 3):
Substitution	binding fitness
V56F	-1.38 natural log
R30P	-1.3 natural log
M51G	-1.12 natural log
R53M	-1.42 natural log
V56A	-1.27 natural log
S47T	-0.895 natural log
A29D	-1.1 natural log
